Results gathered from unrelated publications.
Each line is one published result; not all experiments were run side by side. “And” joins repeats or separate records; there may be more than shown. pIC50: −log10 of the molar value.
MAP2K1: Dual specificity mitogen-activated protein kinase kinase 1 (MAP2K1, Homo sapiens, UniProt Q02750)
UniProt P04818, sequence (whole entry, looked up): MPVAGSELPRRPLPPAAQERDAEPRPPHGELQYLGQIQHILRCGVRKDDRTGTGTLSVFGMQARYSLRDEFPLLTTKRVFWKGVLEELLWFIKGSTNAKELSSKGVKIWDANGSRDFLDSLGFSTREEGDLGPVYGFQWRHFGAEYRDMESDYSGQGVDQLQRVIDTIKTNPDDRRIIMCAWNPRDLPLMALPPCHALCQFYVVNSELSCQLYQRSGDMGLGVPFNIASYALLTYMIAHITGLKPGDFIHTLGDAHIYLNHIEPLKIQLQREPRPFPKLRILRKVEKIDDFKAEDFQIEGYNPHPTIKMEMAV
UniProt Q02750, sequence (whole entry, looked up): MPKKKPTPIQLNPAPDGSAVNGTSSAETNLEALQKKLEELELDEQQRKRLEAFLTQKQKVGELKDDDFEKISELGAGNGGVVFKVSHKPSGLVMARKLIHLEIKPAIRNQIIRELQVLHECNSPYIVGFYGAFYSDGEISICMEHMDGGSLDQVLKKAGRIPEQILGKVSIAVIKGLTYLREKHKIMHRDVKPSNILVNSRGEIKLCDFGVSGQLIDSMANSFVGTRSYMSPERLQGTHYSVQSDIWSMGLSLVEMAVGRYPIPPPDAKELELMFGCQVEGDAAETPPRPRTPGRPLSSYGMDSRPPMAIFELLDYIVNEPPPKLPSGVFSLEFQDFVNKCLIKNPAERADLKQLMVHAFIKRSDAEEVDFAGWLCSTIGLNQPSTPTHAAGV
UniProt P45984, sequence (whole entry, looked up): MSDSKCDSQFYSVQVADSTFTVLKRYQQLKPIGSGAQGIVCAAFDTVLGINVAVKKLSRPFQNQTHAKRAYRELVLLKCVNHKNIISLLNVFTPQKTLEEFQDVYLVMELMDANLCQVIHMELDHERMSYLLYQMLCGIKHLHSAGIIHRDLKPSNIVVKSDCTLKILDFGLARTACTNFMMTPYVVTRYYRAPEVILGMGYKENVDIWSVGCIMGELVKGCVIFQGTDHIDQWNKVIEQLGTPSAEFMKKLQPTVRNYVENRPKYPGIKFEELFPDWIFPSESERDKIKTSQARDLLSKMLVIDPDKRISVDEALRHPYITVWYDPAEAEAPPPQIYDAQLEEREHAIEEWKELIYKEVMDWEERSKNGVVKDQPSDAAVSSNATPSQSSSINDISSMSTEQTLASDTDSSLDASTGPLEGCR
UniProt P30101, sequence (whole entry, looked up): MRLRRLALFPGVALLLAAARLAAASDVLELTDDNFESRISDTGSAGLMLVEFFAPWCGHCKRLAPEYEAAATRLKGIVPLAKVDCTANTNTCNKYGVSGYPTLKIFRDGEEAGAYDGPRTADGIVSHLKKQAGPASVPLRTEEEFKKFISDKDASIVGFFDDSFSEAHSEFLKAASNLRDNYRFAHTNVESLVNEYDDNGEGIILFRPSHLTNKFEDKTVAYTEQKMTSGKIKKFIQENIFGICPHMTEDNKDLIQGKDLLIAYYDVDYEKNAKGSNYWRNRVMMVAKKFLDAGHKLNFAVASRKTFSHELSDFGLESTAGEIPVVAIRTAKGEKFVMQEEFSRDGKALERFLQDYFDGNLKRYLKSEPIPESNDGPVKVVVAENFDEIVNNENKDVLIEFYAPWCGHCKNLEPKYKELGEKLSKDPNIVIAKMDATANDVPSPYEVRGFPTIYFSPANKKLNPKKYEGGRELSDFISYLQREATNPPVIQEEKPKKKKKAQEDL
UniProt Q2M2I8, sequence (whole entry, looked up): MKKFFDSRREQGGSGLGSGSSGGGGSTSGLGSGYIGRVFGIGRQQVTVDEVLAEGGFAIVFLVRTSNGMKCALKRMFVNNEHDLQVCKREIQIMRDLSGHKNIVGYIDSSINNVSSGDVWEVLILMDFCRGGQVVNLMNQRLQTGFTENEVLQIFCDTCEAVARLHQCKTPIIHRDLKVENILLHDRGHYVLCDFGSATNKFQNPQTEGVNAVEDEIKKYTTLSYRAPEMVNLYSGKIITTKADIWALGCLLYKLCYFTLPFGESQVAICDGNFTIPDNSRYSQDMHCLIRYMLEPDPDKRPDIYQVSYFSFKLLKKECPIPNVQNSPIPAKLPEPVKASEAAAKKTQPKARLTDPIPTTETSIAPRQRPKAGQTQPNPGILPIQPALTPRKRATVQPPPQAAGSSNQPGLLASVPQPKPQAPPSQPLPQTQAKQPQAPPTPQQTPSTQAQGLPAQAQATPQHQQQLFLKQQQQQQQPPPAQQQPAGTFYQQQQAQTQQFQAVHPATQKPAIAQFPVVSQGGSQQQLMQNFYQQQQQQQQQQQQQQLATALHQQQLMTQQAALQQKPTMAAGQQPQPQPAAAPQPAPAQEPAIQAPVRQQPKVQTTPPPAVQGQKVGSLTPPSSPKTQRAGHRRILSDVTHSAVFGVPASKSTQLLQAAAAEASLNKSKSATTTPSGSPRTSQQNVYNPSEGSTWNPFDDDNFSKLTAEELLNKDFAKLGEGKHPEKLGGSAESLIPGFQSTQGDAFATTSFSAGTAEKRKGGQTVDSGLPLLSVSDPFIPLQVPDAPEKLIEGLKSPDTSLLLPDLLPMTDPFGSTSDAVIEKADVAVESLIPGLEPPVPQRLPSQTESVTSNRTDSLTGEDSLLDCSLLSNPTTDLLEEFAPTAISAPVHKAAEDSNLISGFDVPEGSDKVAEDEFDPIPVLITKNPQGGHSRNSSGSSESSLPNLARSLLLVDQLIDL
UniProt P48147, sequence (whole entry, looked up): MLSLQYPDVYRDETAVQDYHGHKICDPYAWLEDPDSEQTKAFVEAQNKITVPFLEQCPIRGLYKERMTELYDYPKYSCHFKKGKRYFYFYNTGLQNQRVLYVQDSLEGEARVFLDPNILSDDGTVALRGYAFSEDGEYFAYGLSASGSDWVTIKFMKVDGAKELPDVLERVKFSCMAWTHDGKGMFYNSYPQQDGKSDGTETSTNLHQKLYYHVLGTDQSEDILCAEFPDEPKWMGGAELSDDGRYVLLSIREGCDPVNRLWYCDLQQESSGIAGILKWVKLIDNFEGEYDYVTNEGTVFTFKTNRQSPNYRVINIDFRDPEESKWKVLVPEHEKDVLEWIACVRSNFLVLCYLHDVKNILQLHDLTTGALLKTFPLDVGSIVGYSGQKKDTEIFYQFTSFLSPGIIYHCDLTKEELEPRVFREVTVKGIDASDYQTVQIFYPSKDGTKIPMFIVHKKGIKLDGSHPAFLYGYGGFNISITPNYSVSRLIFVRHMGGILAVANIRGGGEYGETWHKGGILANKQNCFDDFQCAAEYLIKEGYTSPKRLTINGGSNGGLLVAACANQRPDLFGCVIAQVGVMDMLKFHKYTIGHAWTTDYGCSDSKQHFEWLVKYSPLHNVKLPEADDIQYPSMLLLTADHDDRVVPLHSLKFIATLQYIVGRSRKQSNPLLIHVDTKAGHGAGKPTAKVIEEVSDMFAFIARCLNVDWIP
UniProt Q01650, sequence (whole entry, looked up): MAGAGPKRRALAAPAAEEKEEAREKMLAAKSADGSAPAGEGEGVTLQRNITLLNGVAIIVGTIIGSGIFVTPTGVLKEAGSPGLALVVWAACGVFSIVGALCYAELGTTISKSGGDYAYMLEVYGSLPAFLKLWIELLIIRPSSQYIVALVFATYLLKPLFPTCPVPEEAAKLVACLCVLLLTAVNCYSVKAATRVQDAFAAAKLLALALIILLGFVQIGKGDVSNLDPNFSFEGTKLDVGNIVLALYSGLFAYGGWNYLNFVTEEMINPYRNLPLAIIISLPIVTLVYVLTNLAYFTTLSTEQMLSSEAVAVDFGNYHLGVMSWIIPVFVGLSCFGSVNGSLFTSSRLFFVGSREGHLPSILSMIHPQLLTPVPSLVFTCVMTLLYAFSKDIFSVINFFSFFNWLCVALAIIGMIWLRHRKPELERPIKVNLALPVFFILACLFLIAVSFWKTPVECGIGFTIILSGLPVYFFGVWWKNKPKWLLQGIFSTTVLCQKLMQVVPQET
UniProt Q05097, sequence (whole entry, looked up): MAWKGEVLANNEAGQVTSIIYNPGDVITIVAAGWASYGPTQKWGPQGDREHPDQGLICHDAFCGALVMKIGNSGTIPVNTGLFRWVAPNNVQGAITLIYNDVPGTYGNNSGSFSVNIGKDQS

| Structure (SMILES) | target | assay | setting | pIC50 |
| --- | --- | --- | --- | --- |
| CN(C)C(=O)C1CN1S(=O)(=O)c1ccc(N(C)C)c2ccccc12 (centres unmarked) | Protein disulfide-isomerase A3 (PDIA3, Homo sapiens, UniProt P30101) | enzyme activity, inhibitor, absorbance | pH 7.6 | 4.82 |
| N[C@@H](Cc1c[nH]c2ccc(OCc3ccccc3-c3cccs3)cc12)C(=O)O | Large neutral amino acids transporter small subunit 1 (SLC7A5, Homo sapiens, UniProt Q01650) | transporter uptake, inhibitor, radiometric | – | 4.92 |
| CCC1(CC)C(=O)N(c2cccc(CN3CCN(Cc4ccc(Br)cc4)CC3)c2)C1=O | Dipeptidyl peptidase 9 (DPP9, Homo sapiens, UniProt Q86TI2) | cell-free assay, inhibitor | – | 6.39 |
| CC(C)C[C@H](NC(=O)[C@H](CC(N)=O)NC(=O)[C@H](CC(C)C)NC(=O)[C@@H](NC(=O)[C@@H](NC(=O)[C@@H]1CCCN1C(=O)[C@H](CCCNC(=N)N)NC(=O)[C@H](CCCCN)NC(=O)[C@@H]1CCCN1)[C@@H](C)O)[C@@H](C)O)C(=O)N[C@@H](Cc1ccccc1)C(=O)NCCCCCC(=O)N[C@@H](CCCNC(=N)N)C(=O)N[C@@H](CCCNC(=N)N)C(=O)N[C@@H](CCCNC(=N)N)C(=O)N[C@@H](CCC(N)=O)C(=O)N[C@@H](CCCNC(=N)N)C(=O)N[C@@H](CCCNC(=N)N)C(=O)N[C@@H](CCCCN)C(=O)N[C@@H](CCCCN)C(=O)N[C@@H](CCCNC(=N)N)C(=O)NCC(N)=O | Mitogen-activated protein kinase 9 (MAPK9, Homo sapiens, UniProt P45984) | enzyme activity, inhibitor | – | 7.04 and ~7.05 |
| CCCc1nnc(-c2cccc(Nc3ncnn4ccc(CN5CCC(N)CC5)c34)c2)s1 | AP2-associated protein kinase 1 (AAK1, Homo sapiens, UniProt Q2M2I8) | enzyme activity, inhibitor | – | 7.27 |
| N#C[C@@H]1CCCN1C(=O)CNC(=O)c1ccnc2ccc(/C=C/C(=O)NCc3cn(CCOCCOCCOCCNC(=O)CCCC[C@@H]4SC[C@@H]5NC(=O)N[C@@H]54)nn3)cc12 | Prolyl endopeptidase (PREP, Homo sapiens, UniProt P48147) | enzyme activity, inhibitor, fluorescence | with preincubation | < 4.00 |
| N=C(N)NCCCC(N)C(=O)NCC(=O)NC(CCCNC(=N)NCCSCC1OC(n2cnc3c(N)ncnc32)C(O)C1O)C(N)=O (centres unmarked) | N-terminal Xaa-Pro-Lys N-methyltransferase 1 (Homo sapiens, UniProt Q9BV86) | enzyme activity, inhibitor, fluorescence | – | < 4.00 |
| O=C(NOCCO)c1cc2snnc2c(F)c1Nc1ccc(I)cc1F | MAP2K1 | enzyme activity, inhibitor | – | 8.97 |
| O=C(NN1CCS(=O)(=O)CC1)c1ccncc1Nc1ccc(I)cc1F | MAP2K1 | enzyme activity, inhibitor, radiometric | – | 7.52 |
| C=CCc1ccc(OCc2nnc(SCC(=O)Nc3ccccc3C(=O)OC)o2)c(OC)c1 | Thymidylate synthase (TYMS, Homo sapiens, UniProt P04818) | enzyme activity, inhibitor | – | 5.90 and 5.92 |
| Cc1cc(CN2CCN(c3c(Br)cnc4nc(-c5ccc(N6CCN(C)CC6)cc5)[nH]c34)CC2)no1 | Receptor-type tyrosine-protein kinase FLT3 (FLT3, Homo sapiens, UniProt P36888) | enzyme activity, inhibitor | – | 8.60 |
| [N-]=[N+]=NCCNC(=O)c1ccc(S[C@@H]2O[C@H](CO)[C@H](O)[C@H](O)[C@H]2O)cc1 | PA-I galactophilic lectin (lecA, Pseudomonas aeruginosa, UniProt Q05097) | ligand displacement, FP | – | 4.30 |
| CC(C)OC(=O)C(CS)N1C(=O)c2ccc(N(C)C)cc2C1=O (centres unmarked) | Metallo-beta-lactamase type 2 (blaNDM-1, Klebsiella pneumoniae, UniProt C7C422) | enzyme activity, inhibitor | pH 7 | 4.99 |
| Cc1cccn2nc(-c3ccc(F)cc3)c(-c3ccncc3)c12 | Casein kinase I isoform alpha (CSNK1A1, Homo sapiens, UniProt P48729) | enzyme activity, inhibitor, ADP detection | – | < 4.82 |

Repeated from above:
| Structure (SMILES) | target | assay | setting | pIC50 |
| --- | --- | --- | --- | --- |
| CN(C)C(=O)C1CN1S(=O)(=O)c1ccc(N(C)C)c2ccccc12 (centres unmarked) | Protein disulfide-isomerase A3 (PDIA3, Homo sapiens, UniProt P30101) | enzyme activity, inhibitor, absorbance | pH 7.6 | 4.82 |
| N[C@@H](Cc1c[nH]c2ccc(OCc3ccccc3-c3cccs3)cc12)C(=O)O | Large neutral amino acids transporter small subunit 1 (SLC7A5, Homo sapiens, UniProt Q01650) | transporter uptake, inhibitor, radiometric | – | 4.92 |
